# Measurements from different studies.
# Parts stem from different laboratories: compare values within a part only. Positions count from the first letter of the parent shown.

# Sample 1
# Target: Histone acetyltransferase KAT6A, both winged helices, GST fusion (KAT6A, Homo sapiens, UniProt Q92794, residues 1-181)
# Method: protein binding microarray
# Form: double-stranded DNA, one strand shown
# Sample: in vitro
# Concentration: not given
# Notes: 8-mer, flanks averaged, mean of 2 arrays, mostly near background
# Baseline: not given
# Direction: higher = stronger binding
# Construct (chain): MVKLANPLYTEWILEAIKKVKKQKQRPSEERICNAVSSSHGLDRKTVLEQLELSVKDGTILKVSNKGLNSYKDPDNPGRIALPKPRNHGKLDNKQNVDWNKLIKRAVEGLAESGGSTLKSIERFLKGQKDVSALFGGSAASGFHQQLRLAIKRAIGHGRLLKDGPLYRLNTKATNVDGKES
Sequence,E-score
AGTGTCCA,-0.13
GCAAAATA,-0.0771
GACCGTAA,0.244
AAAAATCC,-0.0181
GCTCACCC,-0.0451
CGATGAGA,-0.0794
CCACACTC,-0.0942
GCAGAACC,0.0561
AAGCTGTG,-0.0432
GGTTCCAA,0.0888
AGAGCAAA,-0.241
CCCTCCAA,-0.115
CAACTTGG,-0.109
CCGCCGGA,0.314
AAGCTTCA,-0.115
CCCATTTC,-0.224
ATGCTGAA,-0.216
GTGGCGGA,0.075
CAGAAGCC,-0.0167
TAATTATA,-0.0895
GTGCTCCA,-0.0964

# Sample 2
# Target: Prothrombin, mature alpha-thrombin (F2, Homo sapiens, UniProt P00734)
# Method: aptamer microarray, sandwich
# Form: DNA with 2'F-ANA
# Sample: in vitro
# Concentration: 200 nM
# Notes: whole 15-mer aptamer, many near background
# With: Cy3 exosite-II aptamer, 400 nM
# Direction: higher = stronger binding
# Sequence: GGTTGGTGTGGTTGG
Modification,mean fluorescence intensity [a.u.]
2'F-ANA at 1 2 4 10 11 13 14 15,78.3
2'F-ANA at 1 2 12,400
2'F-ANA at 1 4 6 7 8 9 10 14 15,51.7
2'F-ANA at 2 5 8 11 12,137
2'F-ANA at 1 2 3 4 5 8 12 13 14 15,52.4
2'F-ANA at 3 4 5 8 9 10 11 13 14 15,55.1
2'F-ANA at 1 2 4 5 6 7 8 9 10 11 12 13 15,54.4
2'F-ANA at 1 2 3 4 5 9 13 15,51.1
2'F-ANA at 1 2 5 8 11,52.4
2'F-ANA at 1 2 4 7 8 11 13 14,58
2'F-ANA at 3 4 9 10 14 15,189
2'F-ANA at 2 3 4 7 8 15,734
2'F-ANA at 1 2 3 4 6 9 10 12 13 14 15,53.5
2'F-ANA at 1 5 6 9 10 12 13 14,49.2
2'F-ANA at 2 4 5 6 7 8 10 12,50
2'F-ANA at 1 2 3 4 6 7 8 9 12 13 15,221
2'F-ANA at 2 8 9 10 14 15,87.1
2'F-ANA at 1 6 11 13 15,145
2'F-ANA at 2 3 6 7 8 9 15,774

# Sample 3
# Target: CCND2, cyclin fold, Cln2 fusion (human)
# Method: yeast growth competition, sequencing
# Sample: yeast
# Notes: weak parent motif
# Baseline: not given
# Direction: higher = stronger binding
# Parent: E2F7 docking peptide (human); SSAQRRLEIPSGG
Change,normalised enrichment score
G13A,0.196
R5A,0.262
R5K I9F,0.254
R5K,-0.387
S2A,-0.178
G12A,-0.028
R5A L7A,0.22
S11A,0.219
R6A,-0.422
I9F,1.12

# Sample 4
# Target: Sal-like protein 4, full length isoform A (SALL4, Homo sapiens, UniProt Q9UJQ4, residues 1-1053)
# UniProt Q9UJQ4, sequence (whole entry, looked up): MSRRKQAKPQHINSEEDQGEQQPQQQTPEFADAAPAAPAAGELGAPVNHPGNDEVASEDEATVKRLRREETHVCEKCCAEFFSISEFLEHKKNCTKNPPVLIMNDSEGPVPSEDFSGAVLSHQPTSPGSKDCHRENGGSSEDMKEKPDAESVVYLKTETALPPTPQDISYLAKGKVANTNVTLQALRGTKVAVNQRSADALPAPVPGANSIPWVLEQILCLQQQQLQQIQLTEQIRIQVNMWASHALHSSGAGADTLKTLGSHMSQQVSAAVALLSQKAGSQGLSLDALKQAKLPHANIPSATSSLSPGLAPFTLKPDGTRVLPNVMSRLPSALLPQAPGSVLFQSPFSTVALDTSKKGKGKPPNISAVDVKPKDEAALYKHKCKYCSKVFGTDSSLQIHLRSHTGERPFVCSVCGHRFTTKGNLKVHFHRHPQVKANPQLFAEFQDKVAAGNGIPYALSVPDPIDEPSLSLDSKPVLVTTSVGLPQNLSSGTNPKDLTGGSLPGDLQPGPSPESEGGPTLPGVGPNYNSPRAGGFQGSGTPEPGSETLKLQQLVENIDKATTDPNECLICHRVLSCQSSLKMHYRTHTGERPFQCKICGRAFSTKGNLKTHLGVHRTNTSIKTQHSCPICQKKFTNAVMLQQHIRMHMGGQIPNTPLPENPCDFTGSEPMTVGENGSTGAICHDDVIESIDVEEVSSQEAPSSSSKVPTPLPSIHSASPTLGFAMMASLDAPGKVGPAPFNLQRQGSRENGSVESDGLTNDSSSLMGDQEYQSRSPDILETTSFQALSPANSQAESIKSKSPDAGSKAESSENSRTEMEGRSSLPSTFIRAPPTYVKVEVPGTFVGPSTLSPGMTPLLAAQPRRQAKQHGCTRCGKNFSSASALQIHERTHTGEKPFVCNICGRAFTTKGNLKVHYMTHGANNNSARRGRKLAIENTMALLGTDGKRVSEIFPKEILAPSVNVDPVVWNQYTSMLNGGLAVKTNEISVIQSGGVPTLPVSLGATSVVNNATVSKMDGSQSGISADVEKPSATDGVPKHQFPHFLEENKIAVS
# Method: universal PBM
# Form: double-stranded DNA, one strand shown
# Sample: in vitro
# Concentration: 600 nM
# Notes: 8-mer, flanks averaged, mean of replicates
# Direction: higher = stronger binding
Sequence,E-score
GTTGCTGA,0.0362
CTCAGTAA,0.0112
AACAGATG,0.0723
GTAAGTCA,0.113
AGGTCTCC,-0.139
CACTTTAG,0.0127
AGCAGCAA,-0.00352
ACGGCCAA,-0.103
GTTACGCA,0.0426
CTTCGTGA,-0.0867
GAGCCATC,-0.202
CATCCCCC,-0.312
GAGAGTGC,-0.0176
CCATGGCG,-0.0771
ATTCTGAA,0.198
CAGGTATC,-0.0342
AGGGGTAA,-0.0408
CTACCATC,-0.207
ACCCAATC,-0.0402
AATAGACG,0.108
ACAGCCCG,-0.271

# Sample 5
# Target: Centromere-binding protein 1, full length, N-terminal tag (CBF1, Saccharomyces cerevisiae, UniProt P17106, residues 1-351)
# UniProt P17106, sequence (whole entry, looked up): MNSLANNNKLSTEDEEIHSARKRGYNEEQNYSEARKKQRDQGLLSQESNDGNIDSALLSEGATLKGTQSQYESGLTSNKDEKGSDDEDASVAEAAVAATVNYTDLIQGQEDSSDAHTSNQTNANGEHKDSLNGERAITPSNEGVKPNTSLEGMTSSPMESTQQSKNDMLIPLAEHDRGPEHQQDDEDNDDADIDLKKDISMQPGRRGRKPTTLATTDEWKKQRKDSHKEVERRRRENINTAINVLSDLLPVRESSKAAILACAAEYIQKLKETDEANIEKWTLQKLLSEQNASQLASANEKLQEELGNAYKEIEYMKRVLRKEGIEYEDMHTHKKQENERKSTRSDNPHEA
# Method: protein-binding microarray
# Form: double-stranded DNA, one strand shown
# Sample: in vitro
# Concentration: 0.8 µM
# Notes: whole 60-bp probe, no competitor
# Direction: higher = stronger binding
# All sequences stand within: … GTCTTGATTCGCTTGACGCTGCTG
Sequence,fluorescence intensity
GAAGCCGAGTCGCTTCACGAGGGGATGAGAAAGTAG,616 a.u.
GAAACCAACTATGGTTGTGACGTAAAAGTGGAGTAG,546 a.u.
CCTAACTACTATAGTCACGGGACATAGCTTCGTACA,4350 a.u.
GAAAAAATGTGATTTCATATCACGAAGTTTTTTTAG,716 a.u.
GAACACTAGTCACATCACATGCCAGGCCTTTCTTAG,1520 a.u.
GAAAGAAAAAGTGGTCAGGTGCAAGTATACATCTAG,2230 a.u.
GAAGCAAGACACCATCTGATGGGTTGAAAAGAATAG,530 a.u.
CTAGACTGAACACACCACGATAAAACGTATGTTTTC,526 a.u.
GAATTCTATCCTAACCACCACCTCAAAAAAAAATAG,623 a.u.
CTAATTTTCACGCAGAACGTGCCTAAGAAAAAATTC,766 a.u.
CTAGCTAAACGTCAAAACGTGTAAAGCACCTATTTC,522 a.u.
TGTACGAAGCTATGTTTCCACGTTATAGTAGTTAGG,559 a.u.
GAACACCACCACCACCACCACCGCCTGGATACGTAG,519 a.u.
GAATTTTACCCTCTACACGTTGTCACCCCTTTCTAG,545 a.u.
GAAACTTATTGCCCGCACGAGAAAATCAGAGAATAG,605 a.u.
GAATAAGAAATATAAAAGGTGACTTGGCTTATATAG,514 a.u.
GAACCGTAGTAATATCACGATAGGACAAATTGGTAG,595 a.u.
CTATATATTACCCTGAACGTGGTGAATTGAAGTTTC,580 a.u.
CTAACAAGCTATTAATATGTGACCCATACATTTTTC,514 a.u.

# Sample 6
# Target: RNA binding protein fox-1 homolog 2, RRM domain, GST-SBP tag (RBFOX2, Homo sapiens, UniProt O43251-10, residues 100-194)
# Method: RNA Bind-n-Seq
# Form: RNA
# Sample: in vitro
# Concentration: 365 nM
# Notes: natural RNA segment, single round, ends assumed
# Baseline: no-protein control
# Direction: higher = stronger binding
# All sequences stand within: GGGAGUUCUACAGUCCGACGAUC … UGGAAUUCUCGGGUGCCAA
# Target sequence (chain): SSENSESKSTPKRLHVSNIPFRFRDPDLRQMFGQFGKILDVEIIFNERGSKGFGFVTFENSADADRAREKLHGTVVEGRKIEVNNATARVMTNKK
Sequence,RBNS enrichment (R)
GAAAACUAUUUAAUGAAAGCACGAUAUUUAUCUUUGGUAAAUGACUUUAGAGCAGUUAAAGACAUUGCUUAAAAAACUCAGAAUCAGAAAAAACACUGAAUUAUUUAAGA,5.27
GGGGACUUUGUUGGUAGCCAUUUGGUAGAUGUUCUUUUCUAUUUAUAAGUGACUUUAAACUUUCCCUUGGCUGUUAAGAAGUUUGUUAUAGAUUUAGCUAUUUAUUGUUC,0.672
ACCUGUCCUGGAGACCGAAGUGCCAUCACACCGGGCGGCCUGCGGCUUGGGGCCCCAGCCUUAACUUCUCGACAGUUCCGUGAGGAUGACUUCCGGAGAGUUGUGGACUU,0.245
UGCUGGGGCCGGGCCGAGGACUCCUCAGAGGCGUUUCCUGCAGAGCCAUUAUUUUGACGCCUUUUUGUUUUCUUUUUGAAAAACAAAAUAUUAUUCCCCUGCUUCAUGGC,0.555
CACUAGAAUAAUUGAGCAGAGGCUGGGGUCAUCUUUUGUGACCCGAGAAAUCCCAGGCCAGAACAGCUGGAGCUCUUAUGUAGCACACAAGGCUCGAACCAGCACCGAAU,0.563
AUGCCUUGCACAGAACCAAUUUUUUUUAACUACUGGCCUAUUUUAAUGGUGGUAAAGAGCAUGUUUUGAAAUGCUGUGGAAACCAUCUAUGCUGACAGUCUUGCAGCAUG,1.4
UCCAGCUCUGGAGUGGGGUGCUAUUCUGGCAGUAUCUGGAACUUGGCCUACAGCUUCCUCUGCAGGGUCUAAACAGGGAAGGCACGUGUGGAGGAGUGGUCCCAGUGACA,0.623
UCAUCAGAGGCUGUUUUCCAUGAUCUGGUCCUUCCUCCAGAAAGAAGCAGGAGUUCUCAGAGGAACACGUCCUUCCAUCCAGGAGAAAGUGACUUUCUGUCUGCGGCUGC,0.279
CUAACUGGAAGAGGAAACGCUGGGGCUGCAGUGAGGGCUCCAAGCUUCUCAGUGCCAACCACGCCCUGCCAGCCCCUCCUCCCAUUCUCUUCCCCAGCCUGCCCUCUGCC,0.289
AAUGAAAACAUUAAUGUGUUAAUACCCUGUAUGGAUAAUGCUUGACAUUUAGUGGUUUCCAAAAUAUAUUAGUAUAUUGUUGAACAUACAUUAUGCCUUAGAAAUGCACA,0.546
GUUGUUGUGACCCCCAACCAUAAAAUCAUUUUGUUGCUAUUUCAUGUCUGUAAUUUUGCUAGUUCAUGAACUGUAAUGUAAACAUCUGGUAUGAAGAAUAUCUGAUAUGC,0.516
AAUAAGUUACUAUUUAUUCCGCUCCGCCCCCUCCCUCUCCCUUGAGAAGCUGAGUCUUCUGCAUCAGAUUAUUGCAACAUUUAACCUGAAUUUAAAAGCACACGAAACAA,1.02

# For quick reference, copied from above (sample 6):
Sequence,RBNS enrichment (R)
GAAAACUAUUUAAUGAAAGCACGAUAUUUAUCUUUGGUAAAUGACUUUAGAGCAGUUAAAGACAUUGCUUAAAAAACUCAGAAUCAGAAAAAACACUGAAUUAUUUAAGA,5.27
GGGGACUUUGUUGGUAGCCAUUUGGUAGAUGUUCUUUUCUAUUUAUAAGUGACUUUAAACUUUCCCUUGGCUGUUAAGAAGUUUGUUAUAGAUUUAGCUAUUUAUUGUUC,0.672
ACCUGUCCUGGAGACCGAAGUGCCAUCACACCGGGCGGCCUGCGGCUUGGGGCCCCAGCCUUAACUUCUCGACAGUUCCGUGAGGAUGACUUCCGGAGAGUUGUGGACUU,0.245
UGCUGGGGCCGGGCCGAGGACUCCUCAGAGGCGUUUCCUGCAGAGCCAUUAUUUUGACGCCUUUUUGUUUUCUUUUUGAAAAACAAAAUAUUAUUCCCCUGCUUCAUGGC,0.555
CACUAGAAUAAUUGAGCAGAGGCUGGGGUCAUCUUUUGUGACCCGAGAAAUCCCAGGCCAGAACAGCUGGAGCUCUUAUGUAGCACACAAGGCUCGAACCAGCACCGAAU,0.563
AUGCCUUGCACAGAACCAAUUUUUUUUAACUACUGGCCUAUUUUAAUGGUGGUAAAGAGCAUGUUUUGAAAUGCUGUGGAAACCAUCUAUGCUGACAGUCUUGCAGCAUG,1.4
UCCAGCUCUGGAGUGGGGUGCUAUUCUGGCAGUAUCUGGAACUUGGCCUACAGCUUCCUCUGCAGGGUCUAAACAGGGAAGGCACGUGUGGAGGAGUGGUCCCAGUGACA,0.623
UCAUCAGAGGCUGUUUUCCAUGAUCUGGUCCUUCCUCCAGAAAGAAGCAGGAGUUCUCAGAGGAACACGUCCUUCCAUCCAGGAGAAAGUGACUUUCUGUCUGCGGCUGC,0.279
CUAACUGGAAGAGGAAACGCUGGGGCUGCAGUGAGGGCUCCAAGCUUCUCAGUGCCAACCACGCCCUGCCAGCCCCUCCUCCCAUUCUCUUCCCCAGCCUGCCCUCUGCC,0.289
AAUGAAAACAUUAAUGUGUUAAUACCCUGUAUGGAUAAUGCUUGACAUUUAGUGGUUUCCAAAAUAUAUUAGUAUAUUGUUGAACAUACAUUAUGCCUUAGAAAUGCACA,0.546
GUUGUUGUGACCCCCAACCAUAAAAUCAUUUUGUUGCUAUUUCAUGUCUGUAAUUUUGCUAGUUCAUGAACUGUAAUGUAAACAUCUGGUAUGAAGAAUAUCUGAUAUGC,0.516
AAUAAGUUACUAUUUAUUCCGCUCCGCCCCCUCCCUCUCCCUUGAGAAGCUGAGUCUUCUGCAUCAGAUUAUUGCAACAUUUAACCUGAAUUUAAAAGCACACGAAACAA,1.02
